Measurements pooled from the literature.
Protocols differ between the studies behind these lines. Values joined by “and” are separate records of one study, mostly repeats; a detail may differ. ± gives the spread as reported.

SMILES | tested on | assay | system | conditions | scale | quantity | value
CC(=O)c1c(C)c2cnc(Nc3ccc(C4CCN(CCS(C)(=O)=O)CC4)cn3)nc2n(C2CCCC2)c1=O |  |  | human, plasma | oral, 25 mg once daily, day 21, multiple doses |  | t1/2 | 7.07 h
CO[C@H]1C[C@@H]2CC[C@@H](C)[C@@](O)(O2)C(=O)C(=O)N2CCCC[C@H]2C(=O)O[C@H]([C@H](C)C[C@@H]2CC[C@@H](OC(=O)NCCOCCOCCOCCOCCOCCOCCOCCOCCC(=O)N3CCc4cc(Cn5nc(-c6ccc7oc(N)nc7c6)c6c(N)ncnc65)ccc4C3)[C@H](OC)C2)C[C@@H](O)[C@H](C)/C=C(\C)[C@@H](O)[C@@H](OC)C(=O)[C@H](C)C[C@H](C)/C=C/C=C/C=C/1C |  | phase 1 dose escalation | advanced solid tumour patients | intravenous, 8 mg weekly, grade ≥3 |  | deaths due to TEAEs | 0%
COc1cccc(Oc2ccccc2NC(=O)CNC(=O)c2cccc3ccccc23)c1 |  |  | esterase-deficient SCID mice, male, blood | oral, 40 mg/kg/day, 14 days, toxicity study |  | mean corpuscular hemoglobin concentration | 32.1 g/dL and 33.9 g/dL and 32.8 g/dL
O=C(O)CCCOc1ccc(F)cc1-c1cc(-c2ccccc2C(F)(F)F)n(-c2ccccc2)n1 |  |  | male Crl:CD(SD) rats, testes | intravenous, 25 µg/kg, 14 d |  | organ weight | 3.2 ± 0.56 g
COc1cc(C2C3=C(COC3=O)N(CCO)c3cc4c(cc32)CCC4)cc(OC)c1OC (centres unmarked) |  |  | female C57BL/6 mice | intraperitoneal, 100 mg/kg, 0 h, single dose, mean |  | body weight | 23 g
O=C(Nc1ccccc1)C1CCN(C(=O)Oc2cccnc2)CC1 |  | adverse event reporting | healthy women | oral, 20 mg |  | subjects with Syncope adverse event | 7.1%
N#C/N=C1\SCCN1Cc1ccc(Cl)nc1 |  |  | soil | 56 days, nominal 1.1 |  | recovery | 1.8%
C=CC(=O)Nc1cc(Nc2ncc(C(=O)OC(C)C)c(-c3cn(C)c4ccccc34)n2)c(OC)cc1N(C)CCN(C)C |  |  | NSCLC patients, primary efficacy population | 160 mg once daily, one event |  | fatal cardiac failure | 0.9%
COc1ncccc1-c1cnn2ccc(N3CCN(C(=O)OC(C)C)CC3)nc12 |  |  | mouse nerve ligation model, brain | oral, 10 mg/kg, 120 min after last dose, repeat dosing day 5 |  | drug concentration | 5.8 µM
O=S(=O)(Nc1ccccc1)c1ccc(NC(=S)Nc2ccccc2)cc1 |  |  | female mouse, blood | oral, 5 mg/kg daily, 14 days |  | chloride level | 111 mmol/L
COc1cc2c(Oc3ccc4[nH]c(C)cc4c3F)ccnc2cc1OCC1(N)CC1 |  |  | paediatric recurrent refractory sarcoma | 12 mg |  | grade 1 or 2 TBIL elevation | 0%
C[C@H]1CN(C(=O)CC#N)[C@]12CCN(c1ncnc3[nH]ccc13)C2 |  |  | minipig, male | dermal, 12 mg/kg repeated, 1 months |  | Cmax at NOAEL | 1.2 ng/mL
CC(C)C[C@H](NC(=O)[C@H](CCCCN)NC(=O)OCC1c2ccccc2-c2ccccc21)C(=O)N[C@H](C(=O)N[C@@H](Cc1ccccc1)C(=O)N[C@@H](Cc1ccccc1)C(=O)N[C@@H](CCCCN)C(=O)NCC(=O)N[C@@H](Cc1ccccc1)C(=O)N[C@@H](C)C(=O)N[C@@H](Cc1c[nH]c2ccccc12)C(=O)N[C@@H](CC(N)=O)C(=O)N[C@H](C(=O)N[C@H]1CSSC[C@@H](C(=O)N[C@@H](Cc2c[nH]cn2)C(=O)N[C@@H](CCCNC(=N)N)C(=O)N[C@@H](CCCNC(=N)N)C(=O)N[C@@H](C)C(=O)N[C@@H](CC(N)=O)C(N)=O)NC(=O)[C@H](C(C)C)NC(=O)[C@H](CCCNC(=N)N)NC(=O)[C@H](C(C)C)NC(=O)CNC(=O)[C@H](CC(N)=O)NC(=O)[C@H](CCCNC(=N)N)NC(=O)[C@H](Cc2ccc(O)cc2)NC(=O)[C@H](C(C)C)NC1=O)C(C)C)C(C)C |  |  | ICR mice, blood | intraductal mammary, 5 mg/kg, day 5 |  | mean platelet volume | 6.86 ± 0.35 fL
C[C@]1(CO)Cc2ncn(-c3ccc(C#N)c(Cl)c3)c2C(=O)O1 |  |  | healthy men | single and multiple doses up to 80 mg |  | tolerability | not toxic
C[C@@H]1OC(=O)NN=C1c1ccc(-c2ccc(F)cc2)c(C(F)(F)F)c1 |  | phase I trial, refers to: alkaline phosphatase increased | human patients | 10 mg load, 0.5 mg daily, worst grade 1 |  | patients with TEAE | 0%
NCCCC[C@@H]1NC(=O)[C@@H](Cc2c[nH]c3ccccc23)NC(=O)[C@H](c2ccccc2)NC(=O)[C@@H]2C[C@@H](OC(=O)NCCN)CN2C(=O)[C@H](Cc2ccccc2)NC(=O)[C@H](Cc2ccc(OCc3ccccc3)cc2)NC1=O |  |  | healthy volunteers, female | 600 µg twice daily, 4.0 h, post hoc |  | placebo-corrected QTcF change | 4.2 ms
CCc1ccc(CC/C=C/c2ccc3c(c2)C(=O)CC3)cc1 |  |  | Sprague-Dawley rat, male | oral, 450 mg/kg/day, 14 days |  | CK serum activity | 412 U/L
CCN1CCN(Cc2ccc(Nc3ncc(F)c(-c4cc(F)c5nc6n(c5c4)[C@H](C)CCC6)n3)nc2)CC1 |  |  | advanced solid tumour patients | dose not given, Phase Ia monotherapy |  | Hypercalcemia incidence, any grade | 20.8%
CN[C@@H](C)C(=O)N[C@H]1CN(S(=O)(=O)c2cccc(S(=O)(=O)N3CC[C@H]4CC[C@@H](C(=O)NC(c5ccccc5)c5ccccc5)N4C(=O)[C@@H](NC(=O)[C@H](C)NC)C3)c2)CC[C@H]2CC[C@@H](C(=O)NC(c3ccccc3)c3ccccc3)N2C1=O |  |  | patients with advanced solid tumours | 45 mg, phase I monotherapy |  | treatment-related pruritus incidence | 0%
CCN1[C@@H](C(=O)NC23CCC(C(=O)O)(CC2)CC3)[C@H](c2cccc(Cl)c2F)[C@]2(C(=O)Nc3cc(Cl)ccc32)C12CCCCC2 |  |  | patients with advanced solid tumours | oral, dose not given, all doses |  | Thrombocytopenia incidence | 52.4%
COc1ccc([C@@H](O)c2cc(-c3ncnc4cc(N5CCOCC5)ccc34)c(F)cc2Cl)nn1 |  |  | patients, advanced solid tumours | oral, 300 mg twice daily, treatment-emergent, with: avelumab | baseline: patients | stomatitis incidence | 4%
C[C@H]1COCCN1c1nc(NCc2cccnc2C(F)(F)F)c2cccnc2n1 |  |  | male CD-1 mouse, femur bone marrow | oral, 1000 mg/kg twice, 48 h, group mean |  | micronucleated PCE | 0.08%
O=S(=O)(CC1CS1)c1ccc(Oc2ccccc2)cc1 (racemic) |  |  | methanol | room temperature, with: 10 equiv iodomethane, 1.1 equiv DBU and DBU·HCl |  | time to complete loss | ≤ 3 h
COc1ccccc1-c1cccc(CN2CCCC(C(=O)NCCc3ccc(F)cc3)C2)c1 (centres unmarked) | Vero-E6 | CellTiter-Glo ATP |  | concentration not given, 72 h, first round 5-point | baseline: DMSO 0%, hyamine -100%, more negative, more toxic | cytotoxicity efficacy | -12%
CN1CC[C@@H](c2c(O)cc(O)c3c(=O)cc(-c4ccc(C(F)(F)F)cc4Cl)oc23)[C@@H]1CO |  | refers to: Neutropenia | relapsed or refractory haematological malignancies | oral, dose not given, grade 3 to 4 |  | adverse event incidence | 7.5%
O=S(=O)(F)Oc1cc(C(F)(F)F)cc(C(F)(F)F)c1 |  | chemical stability, HPLC-MS | borate buffered saline | pH 10.2, no N-acetyl-lysine |  | degradation rate constant | 0.1 h⁻¹
Cc1c(COC(=O)[C@@H]2[C@H](/C=C(\Cl)C(F)(F)F)C2(C)C)cccc1-c1ccccc1 (racemic) |  | refers to: CYP3A5 | human, age 1 year, recombinant human CYP3A5 | 0.1 µM |  | enzyme contribution to clearance | 2.03%
COc1ccc2nc3cc(Cl)ccc3c(Nc3cc(CN4CCCC4)c(O)c(CN4CCCC4)c3)c2n1 |  |  | mouse, blood | oral, 57 mg/kg, tolerability, mean |  | mean corpuscular haemoglobin | 14.7 pg
COc1ccc(CC(=O)NC2CCN(Cc3ccc(-c4ccccc4OC)cc3)C2)cc1 (centres unmarked) | Vero-E6 | CellTiter-Glo ATP |  | concentration not given, 72 h, first round 5-point | baseline: DMSO 0%, hyamine -100%, more negative, more toxic | cytotoxicity efficacy | 0%

A few entries again:
SMILES | tested on | assay | system | conditions | scale | quantity | value
O=S(=O)(Nc1ccccc1)c1ccc(NC(=S)Nc2ccccc2)cc1 |  |  | female mouse, blood | oral, 5 mg/kg daily, 14 days |  | chloride level | 111 mmol/L
O=C(Nc1ccccc1)C1CCN(C(=O)Oc2cccnc2)CC1 |  | adverse event reporting | healthy women | oral, 20 mg |  | subjects with Syncope adverse event | 7.1%
COc1ccc(CC(=O)NC2CCN(Cc3ccc(-c4ccccc4OC)cc3)C2)cc1 (centres unmarked) | Vero-E6 | CellTiter-Glo ATP |  | concentration not given, 72 h, first round 5-point | baseline: DMSO 0%, hyamine -100%, more negative, more toxic | cytotoxicity efficacy | 0%
CC(=O)c1c(C)c2cnc(Nc3ccc(C4CCN(CCS(C)(=O)=O)CC4)cn3)nc2n(C2CCCC2)c1=O |  |  | human, plasma | oral, 25 mg once daily, day 21, multiple doses |  | t1/2 | 7.07 h
